# Measurements pooled from the literature.
# A part holds a random share of what one study measured.

# Block 1
# Target: Histone acetyltransferase KAT6A, both winged helices, GST fusion (KAT6A, Homo sapiens, UniProt Q92794, residues 1-181)
# Method: protein binding microarray
# Form: double-stranded DNA, one strand shown
# Matrix: in vitro
# Tested at: not given
# Setting: 8-mer, flanks averaged, mean of 2 arrays, mostly near background
# Relative to: not given
# Direction: higher = stronger binding
# Residues (chain): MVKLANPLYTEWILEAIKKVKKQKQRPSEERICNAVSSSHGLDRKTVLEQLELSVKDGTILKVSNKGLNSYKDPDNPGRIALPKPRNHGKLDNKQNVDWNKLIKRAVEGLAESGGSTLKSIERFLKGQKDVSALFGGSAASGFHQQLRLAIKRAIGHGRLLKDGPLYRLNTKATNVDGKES
Sequence,E-score
CATGATAG,-0.0698
CTCCATTA,-0.184
ATCGCGCA,0.3
CTCGGGTC,0.171
CATATCGC,0.189
CGGCTCAC,0.16
AAAGATCT,-0.0245
ATGGTAGG,-0.0831
GTTCCGAA,0.162
ATGTATAC,-0.0717
CATGTTAG,-0.136

# Block 2
# Target: Interferon regulatory factor 7, full length, phosphomimetic (IRF7, Homo sapiens, UniProt Q92985, residues 1-503, S101K/S471D/S472D/S475D/S476D/S477D/S483D/S484D/S487D)
# Method: protein-binding microarray
# Form: double-stranded DNA, one strand shown
# Matrix: in vitro
# Tested at: 250 nM
# Setting: 60-bp whole probe
# Together with: salmon DNA 0.4 mg/ml
# Relative to: random background probes
# Direction: higher = stronger binding
# Shared flanks, not repeated: GCCTAGCAC … GTCTTGATTCGCTTGACGCTGCTG
# Residues (chain): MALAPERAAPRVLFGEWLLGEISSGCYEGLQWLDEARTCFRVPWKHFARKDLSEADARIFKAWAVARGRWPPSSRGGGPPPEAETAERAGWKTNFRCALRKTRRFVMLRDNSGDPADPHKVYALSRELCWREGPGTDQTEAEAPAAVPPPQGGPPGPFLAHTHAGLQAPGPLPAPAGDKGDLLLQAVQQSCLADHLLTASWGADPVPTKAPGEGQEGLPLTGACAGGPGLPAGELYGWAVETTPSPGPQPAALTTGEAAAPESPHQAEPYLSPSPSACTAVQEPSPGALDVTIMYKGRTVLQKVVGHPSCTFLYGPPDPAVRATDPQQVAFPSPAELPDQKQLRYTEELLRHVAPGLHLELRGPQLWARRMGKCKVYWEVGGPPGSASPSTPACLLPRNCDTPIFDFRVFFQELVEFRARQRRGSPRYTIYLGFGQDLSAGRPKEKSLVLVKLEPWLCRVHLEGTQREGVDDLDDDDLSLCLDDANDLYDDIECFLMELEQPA
Sequence,log fluorescence [z-score]
TAACTTTCCAATTGTCCTTTCGTGCTA,2.17
TACGGTTCCGGTTTCGGGACGTGCTAG,7.85
AATGATTACATATATGTTGGTGTGCTA,0.0326
GACGAGCTGAGACTGGAGACGTGCTAG,-0.745
TTAGGTATTGGGTTTCGGTTAGTGCTA,5.66
GACGGTCTCGGTTCCGGGACGTGCTAG,3.13
GACCGACTGGACTATCGGGACGTGCTA,-0.26
GTAGGTTTCGACTATCGGTTAGTGCTA,5.37
GACGGTTTCGGAATCGGGACGTGCTAG,9.72
TTAGGTATCGGGGATCGGTTAGTGCTA,0.0595

# Block 3
# Target: Max-binding protein MNT, bHLH-zipper, MAX partner unstated (MNT, Homo sapiens, UniProt Q99583, residues 220-300)
# Method: protein-binding microarray
# Form: double-stranded DNA, one strand shown
# Matrix: in vitro
# Tested at: not given
# Setting: k-mer, scored over probes, only values ≥0.25
# Direction: higher = stronger binding
# Residues (chain): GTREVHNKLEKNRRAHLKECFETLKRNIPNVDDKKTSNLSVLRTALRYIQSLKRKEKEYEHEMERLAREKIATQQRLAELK
Sequence,E-score
CACGCTGC,0.426
CGGTCACG,0.263
ACGAGGCA,0.313
ATGCGCAT,0.377
CGAGCACA,0.297
GTGCGGCA,0.328

# Mixed results
Substance,target,test,test system,conditions,scale,measurement,value
"PhoQ, residues 284 288 289 292 302 303 WSHMKI","PhoP, residues 12 14 15 18 19 NQGLL (Escherichia coli, UniProt P23836)","Sort-seq, item: YFP reporter",E. coli,"PhoQ-PhoP variant library, together with: 10 µM Mg2+","relative to: high Mg2+ state, higher = stronger signaling",fold induction,0.932

# Excerpt of the above (block 2):
Sequence,log fluorescence [z-score]
TAACTTTCCAATTGTCCTTTCGTGCTA,2.17
TACGGTTCCGGTTTCGGGACGTGCTAG,7.85
